Measured values pooled from the literature.
Protocols differ between the studies behind these lines.
TDP1: Tyrosyl-DNA phosphodiesterase 1 (TDP1, Homo sapiens, UniProt Q9NUW8)
Sequence of UniProt Q9NUW8 (whole entry, looked up): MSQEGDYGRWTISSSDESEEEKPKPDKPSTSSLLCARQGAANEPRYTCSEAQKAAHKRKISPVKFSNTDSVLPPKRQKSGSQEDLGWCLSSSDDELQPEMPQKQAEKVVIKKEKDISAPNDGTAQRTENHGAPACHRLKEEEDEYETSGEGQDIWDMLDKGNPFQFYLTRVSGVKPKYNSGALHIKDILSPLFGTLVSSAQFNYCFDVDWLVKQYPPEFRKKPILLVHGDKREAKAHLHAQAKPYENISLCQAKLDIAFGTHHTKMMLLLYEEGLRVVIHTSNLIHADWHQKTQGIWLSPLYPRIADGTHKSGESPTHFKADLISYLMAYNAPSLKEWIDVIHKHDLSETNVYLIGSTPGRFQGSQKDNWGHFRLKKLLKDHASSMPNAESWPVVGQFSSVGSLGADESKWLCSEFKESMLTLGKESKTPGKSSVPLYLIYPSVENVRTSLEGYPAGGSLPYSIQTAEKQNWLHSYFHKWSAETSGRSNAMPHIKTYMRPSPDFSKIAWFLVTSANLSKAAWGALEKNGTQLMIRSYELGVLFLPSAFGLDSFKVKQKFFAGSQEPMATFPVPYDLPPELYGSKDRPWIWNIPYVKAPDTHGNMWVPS

| Compound | tested on | assay | test system | conditions | measurement | result |
| --- | --- | --- | --- | --- | --- | --- |
| C/C(=N\Nc1ncnc2sc3c(c12)CCCC3)c1cc(O)ccc1O | – | – | CD-1 mouse, plasma | intraperitoneal, 10 mg/kg, single dose | half-life | 5.83 h |
| CC(C)(O)Cn1nc(-c2ccccc2)c2c(Cl)c(-c3ccccc3)nnc21 | – | – | mouse, plasma | intraperitoneal, 3 mg/kg | half-life | 1.57 h |
| O=S(=O)(N[C@H]1CCO[C@@H](C2c3ccccc3CCc3ccccc32)C1)c1ccc(OC(F)(F)F)cc1 | – | – | mouse, plasma | oral, 30 mg/kg | half-life | 4.3 h |
| Nc1ccc(-c2cc(Cl)c(Cl)c3[nH]c4c(c23)CN(C(=O)CO)CC4)cn1 | – | – | C57BL/6 mouse, blood | intravenous, 0.5 mg/kg | half-life | 0.421 h |
| CC(C)(C)c1cnc(CSc2cnc(NC(=O)C3CCN(C(=O)CCCCCCCN4Cc5cc6c(cc5C4)C(=O)N(C4CCC(=O)NC4=O)C6=O)CC3)s2)o1 (stereo not drawn) | – | – | mouse, plasma | intravenous, 2 mg/kg | half-life | 0.3 h |
| Cn1ccc(-c2cc(Cl)c(Cl)c3[nH]c4c(c23)CN(C(=O)CO)CC4)n1 | – | – | C57BL/6 mouse, blood | oral, 20 mg/kg | half-life | 2.44 h |
| C[C@@]1(c2nc(-c3ccc(F)c4cn[nH]c34)no2)CCCN(C(=O)c2ccc(F)nc2)C1 | – | – | male C57BL/6 mouse, plasma | intraperitoneal, 20 mg/kg | half-life | 2.16 h |
| Fc1cncc(-c2ccc3[nH]c4ncnc(N[C@H]5CC[C@H](N6CCOCC6)CC5)c4c3c2)c1 | – | – | CD-1 mouse, plasma | oral, 10 mg/kg | half-life | 1.05 h |
| COC(=O)C1=CNC=C(C(=O)OC)C1c1ccc(F)c(C(F)(F)F)c1 | – | – | male C57BL/6 mouse, plasma | intravenous, 2 mg/kg | half-life | 5.15 h |
| Cc1cc(NCC(=O)C(C)C)c2nc(N3CCOC[C@H]3C)cc(=O)n2c1 | – | – | C57BL/6 mouse, plasma | intraperitoneal, 10 mg/kg, single dose | half-life | 0.59 h |
| COc1ccccc1/C=C/CNCC(O)COc1ccc(Nc2ccccc2)cc1 (racemic) | – | – | mouse, plasma | oral, 10 mg/kg | half-life | 0.57 h |
| O=C(Nc1ccc(C(F)F)cc1)[C@H](CC1CCCCC1)Nc1nn2c(=O)ccnc2s1 | – | – | female nude mouse, plasma | oral, 10 mg/kg | half-life | 0.95 h |
| O=C(O)c1ccc(/C=C2\SC(=S)N(Cc3cccc(C(F)(F)F)c3)C2=O)cc1 | – | – | C57BL/6 mouse, blood | oral, 10 mg/kg | half-life | 5.1 h |
| CCC(=O)NC1CC=C(c2cc3c(Nc4cc5ncsc5cc4F)ncnc3s2)CC1 (racemic) | – | – | mouse, plasma | oral, 10 mg/kg | half-life | 5.16 h |
| C/C(N)=N/C(=N\S(=O)(=O)c1ccc(C(F)(F)F)cc1)N1C[C@H](c2ccccc2)C(c2ccc(Cl)cc2)=N1 | – | – | male C57BL/6 mouse, liver | intravenous, 5 mg/kg | half-life | 2.9 h |
| COc1cnc2cccc(N3CCc4c(cc(Cn5ccnc5)cc4-c4cn(C)nc4C(F)(F)F)C3=O)c2c1 | – | – | male CD-1 mouse, plasma | oral, 10 mg/kg | half-life | 1.3 h |
| COc1cccc2c(N3CCC(CCP(=O)(O)O)CC3)ncnc12 | – | – | female C57BL/6 mouse, brain | subcutaneous, 100 mg/kg | half-life | 3.5 h |
| OCC1OC(n2cnc3c(NCc4ccc(Br)s4)ncnc32)C(O)C1O (stereo not drawn) | – | – | male CD-1 mouse, blood | intravenous, 1 mg/kg | half-life | 1.8 h |
| O=C1C2CC3CC1CC(C(=O)N1CCN(c4ccc([N+](=O)[O-])c5ncccc45)CC1)(C3)C2 | – | – | male CD-1 mouse, plasma | intravenous, 1 mg/kg | half-life | 0.224 h |
| O=S(=O)(N[C@H]1CCO[C@@H](C2c3ccc(F)cc3CCc3cc(F)ccc32)C1)c1ccc(OC(F)(F)F)cc1 | – | – | mouse, plasma | oral, 30 mg/kg | half-life | 5.5 h |

| Compound | tested on | assay | test system | conditions | measurement | result |
| --- | --- | --- | --- | --- | --- | --- |
| CCC(=O)N1CCC=C(c2cc3c(Nc4cc5ncsc5cc4F)ncnc3s2)C1 | – | – | mouse, plasma | intravenous, 10 mg/kg | half-life | 3.3 h |
| Oc1ccc([C@@H]2Oc3ccc(O)cc3[C@@H]3CCC[C@@H]32)cc1 | – | – | male C57BL/6 mouse, plasma | oral, 10 mg/kg | half-life | 3 h |
| OCCn1nc(-c2ccccc2)c2c(Cl)c(-c3ccccc3)nnc21 | – | – | mouse, plasma | intraperitoneal, 10 mg/kg | half-life | 0.267 h |
| Nc1ccc(-c2ccc(F)cc2)cc1NC(=O)C1CCOCC1 | – | – | male C57BL/6 mouse, brain | intraperitoneal, 10 mg/kg | half-life | 0.213 h |
| Cc1noc(-c2ccc(C=NOCc3ccc4nc(-c5ccccc5)c(Nc5ccc(C(=O)O)cc5)n4c3)cc2)n1 | TDP1 | enzyme activity, inhibitor | – | 100 µM, unpurified compound | inhibition | 113% |
| CC[C@H](C)[C@@H]1NC(=O)[C@@](C)(NC(=O)[C@H](CCCNC(=N)N)NC(=O)[C@H](CC(C)C)NC(=O)[C@]2(C)CCCC=CCCC[C@](C)(NC(C)=O)C(=O)N[C@@H](CC(C)C)C(=O)N[C@@H](CCC(N)=O)C(=O)N2)CCCC=CCCC[C@@](C)(C(=O)N[C@@H](CC(C)C)C(=O)N[C@@H](Cc2ccc3ccccc3c2)C(=O)NCCC(=O)NCCC(N)=O)NC(=O)[C@H](CCCNC(=N)N)NC(=O)[C@H](CCC(N)=O)NC1=O | – | – | male BALB/c mouse, plasma | intraperitoneal, 30 mg/kg | half-life | 9.81 h |
| O=C(C1CC1)N1CCC=C(c2cc3c(Nc4cc5ncsc5cc4F)ncnc3s2)C1 | – | – | mouse, plasma | oral, 10 mg/kg | half-life | 2.43 h |
| CC[C@H](C)/C=C/C=C/C=C/C(O)=C/C(=O)C(F)(F)F | – | – | female C57BL/6 mouse, plasma | oral, 25 mg/kg | half-life | 1 h |
| CCn1cc(-c2cc(Cn3ccnc3)cc3c2CCN([C@H](c2cc(OC)ccn2)C2CC2)C3=O)c(C(F)(F)F)n1 | – | – | male CD-1 mouse, plasma | intravenous, 3 mg/kg | half-life | 0.9 h |
| CC(C)NC(=O)NC1CC=C(c2cc3c(Nc4cc5ncsc5cc4F)ncnc3s2)CC1 (racemic) | – | – | mouse, plasma | intravenous, 10 mg/kg | half-life | 5.33 h |
| COc1cc(OCCN2CCOCC2)cnc1-c1nc2cc(OC(F)(F)F)ccc2[nH]1 | – | – | mouse, plasma | intraperitoneal, 100 mg/kg | half-life | 4.05 h |
| CC(=O)N1CCC=C(c2cc3c(Nc4cc5ncsc5cc4F)ncnc3s2)C1 | – | – | mouse, plasma | oral, 10 mg/kg | half-life | 3.3 h |
| COC1C(c2ccc(Cl)c(Cc3ccc(OC4CCOC4)cc3)c2)OC(CO)C(O)C1O (stereo not drawn) | – | – | CD-1 mouse, plasma | intravenous, 5 mg/kg | half-life | 2.47 h |
| O=C1CCC(N2C(=O)c3ccc(N4CCC(C(=O)N5CCC(CCN6CCC(CNC(=O)c7cccc(-c8noc(C(F)(F)F)n8)c7)(c7nc(-c8ccccc8)cs7)CC6)CC5)CC4)cc3C2=O)C(=O)N1 (stereo not drawn) | – | – | CD-1 mouse, plasma | intraperitoneal, 30 mg/kg | half-life | 5.74 h |
| CCC1C(COc2nccc3cc(C(N)=O)c(OC)cc23)NC(=O)C1F (stereo not drawn) | – | – | CD-1 mouse, plasma | intravenous, 1 mg/kg | half-life | 13.6 h |
| O=C(O)c1ccc(Nc2c(-c3ccccc3)nc3ccc(CON=Cc4ccc(-n5ccnc5)cc4)cn23)cc1 (mixture of isomers) | TDP1 | enzyme activity, inhibitor | – | 100 µM, unpurified compound | inhibition | 12.9% |
| Cc1cc(NC(=O)[C@H](O)c2cc(F)cc(F)c2)ccc1-c1cnc(N)c(C(=O)NC(C)C)c1 | – | – | female nude mouse, plasma | oral, 3 mg/kg, single dose | half-life | 1.8 h |
| CC[C@H](C)/C=C/C=C/C=C/C(O)=C/C(=O)C(Cl)(Cl)Cl | – | – | female C57BL/6 mouse, plasma | oral, 25 mg/kg | half-life | 1.4 h |
| N#CCCC1CCN(C(=S)c2ccc(-c3cc(Cl)ccc3Cl)o2)CC1 | – | – | male BALB/c mouse, plasma | oral, 10 mg/kg | half-life | 2.11 h |

A few entries again:
| Compound | tested on | assay | test system | conditions | measurement | result |
| --- | --- | --- | --- | --- | --- | --- |
| C[C@@]1(c2nc(-c3ccc(F)c4cn[nH]c34)no2)CCCN(C(=O)c2ccc(F)nc2)C1 | – | – | male C57BL/6 mouse, plasma | intraperitoneal, 20 mg/kg | half-life | 2.16 h |
| O=S(=O)(N[C@H]1CCO[C@@H](C2c3ccc(F)cc3CCc3cc(F)ccc32)C1)c1ccc(OC(F)(F)F)cc1 | – | – | mouse, plasma | oral, 30 mg/kg | half-life | 5.5 h |
| O=S(=O)(N[C@H]1CCO[C@@H](C2c3ccccc3CCc3ccccc32)C1)c1ccc(OC(F)(F)F)cc1 | – | – | mouse, plasma | oral, 30 mg/kg | half-life | 4.3 h |
| C/C(=N\Nc1ncnc2sc3c(c12)CCCC3)c1cc(O)ccc1O | – | – | CD-1 mouse, plasma | intraperitoneal, 10 mg/kg, single dose | half-life | 5.83 h |
| CC(C)(O)Cn1nc(-c2ccccc2)c2c(Cl)c(-c3ccccc3)nnc21 | – | – | mouse, plasma | intraperitoneal, 3 mg/kg | half-life | 1.57 h |
